{"data": "Assay results from different studies", "note": "Parts stem from different laboratories: compare values within a part only. Changes are numbered by the printed parent chain.", "UniProt P00519, sequence (whole entry, unmodified, looked up)": "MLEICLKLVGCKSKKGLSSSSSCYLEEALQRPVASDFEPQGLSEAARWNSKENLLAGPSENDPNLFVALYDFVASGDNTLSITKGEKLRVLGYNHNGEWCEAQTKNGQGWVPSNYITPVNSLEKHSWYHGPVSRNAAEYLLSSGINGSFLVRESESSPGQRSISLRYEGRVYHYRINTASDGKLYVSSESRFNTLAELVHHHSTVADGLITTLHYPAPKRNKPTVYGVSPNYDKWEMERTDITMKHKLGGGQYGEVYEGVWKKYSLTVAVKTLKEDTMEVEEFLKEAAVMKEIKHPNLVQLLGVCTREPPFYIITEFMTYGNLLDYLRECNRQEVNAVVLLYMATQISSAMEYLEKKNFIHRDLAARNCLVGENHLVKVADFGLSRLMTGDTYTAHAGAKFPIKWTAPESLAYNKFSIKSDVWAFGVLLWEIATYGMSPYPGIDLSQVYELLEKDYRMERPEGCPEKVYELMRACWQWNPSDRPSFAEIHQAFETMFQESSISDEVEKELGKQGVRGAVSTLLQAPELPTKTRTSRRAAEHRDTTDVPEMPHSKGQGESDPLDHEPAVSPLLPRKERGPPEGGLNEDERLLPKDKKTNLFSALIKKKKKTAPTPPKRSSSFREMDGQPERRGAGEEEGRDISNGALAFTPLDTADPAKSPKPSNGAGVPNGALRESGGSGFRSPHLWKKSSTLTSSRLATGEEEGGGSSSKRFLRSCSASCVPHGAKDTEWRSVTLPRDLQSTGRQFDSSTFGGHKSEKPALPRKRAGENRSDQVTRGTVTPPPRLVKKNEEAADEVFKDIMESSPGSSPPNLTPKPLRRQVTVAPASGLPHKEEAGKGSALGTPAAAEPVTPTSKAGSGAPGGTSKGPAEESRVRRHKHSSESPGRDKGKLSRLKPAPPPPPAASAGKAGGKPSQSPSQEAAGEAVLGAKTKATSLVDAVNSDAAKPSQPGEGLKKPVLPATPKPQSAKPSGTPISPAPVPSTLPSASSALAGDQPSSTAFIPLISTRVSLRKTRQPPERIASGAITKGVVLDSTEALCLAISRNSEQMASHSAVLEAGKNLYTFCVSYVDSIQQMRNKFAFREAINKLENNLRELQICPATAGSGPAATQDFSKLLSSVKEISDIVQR"}
{"data": "Block 1", "target": "CCNA2, cyclin fold, Cln2 fusion (human)", "technique": "yeast growth competition, sequencing", "sample": "yeast", "setting": "strong parent motif", "baseline": "not given", "reading": "higher = stronger binding", "starting sequence": "MICAL3 docking peptide (human); LQLRRQLSFSEDS; partner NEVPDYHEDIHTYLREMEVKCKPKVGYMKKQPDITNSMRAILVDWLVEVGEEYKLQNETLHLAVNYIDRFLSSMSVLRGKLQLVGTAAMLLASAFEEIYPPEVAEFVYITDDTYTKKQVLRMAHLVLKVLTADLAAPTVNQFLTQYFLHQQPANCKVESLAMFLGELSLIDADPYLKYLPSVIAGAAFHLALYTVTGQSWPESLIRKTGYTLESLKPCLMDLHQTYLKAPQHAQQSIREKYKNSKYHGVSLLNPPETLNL"}
{"Change": "LQLRRQLSFMEDS [S10M]", "normalised enrichment score": 2.18}
{"Change": "LQLKRQLSFSEDS [R4K]", "normalised enrichment score": 1.77}
{"Change": "LQLRRQLNFSEDS [S8N]", "normalised enrichment score": 4.35}
{"Change": "LQRRRQLSFSEDS [L3R]", "normalised enrichment score": 3.47}
{"Change": "LQLRRQLSFVEDS [S10V]", "normalised enrichment score": 2.11}
{"Change": "LQLRRQLSDSEDS [F9D]", "normalised enrichment score": -0.102}
{"Change": "LQLRRQLSFKEDS [S10K]", "normalised enrichment score": 2.23}
{"Change": "LQPRRQLSFSEDS [L3P]", "normalised enrichment score": 4.87}
{"data": "Block 2", "target": "Hepatocyte nuclear factor 3-alpha (Foxa1, Mus musculus, UniProt P35582, residues 1-468, full length assumed)", "technique": "EMSA with sequencing", "molecule type": "double-stranded DNA, one strand shown", "sample": "in vitro", "tested at": "10 and 20 nM", "setting": "whole designed probe, mean of two concentrations, ends assumed", "baseline": "negative control set to 0", "reading": "higher = stronger binding", "all sequences stand within": "GTGAGCGGTGCCCATTGATGGGGAAC … TTTCACTGGGATCGTGGGGAC", "Construct (chain)": "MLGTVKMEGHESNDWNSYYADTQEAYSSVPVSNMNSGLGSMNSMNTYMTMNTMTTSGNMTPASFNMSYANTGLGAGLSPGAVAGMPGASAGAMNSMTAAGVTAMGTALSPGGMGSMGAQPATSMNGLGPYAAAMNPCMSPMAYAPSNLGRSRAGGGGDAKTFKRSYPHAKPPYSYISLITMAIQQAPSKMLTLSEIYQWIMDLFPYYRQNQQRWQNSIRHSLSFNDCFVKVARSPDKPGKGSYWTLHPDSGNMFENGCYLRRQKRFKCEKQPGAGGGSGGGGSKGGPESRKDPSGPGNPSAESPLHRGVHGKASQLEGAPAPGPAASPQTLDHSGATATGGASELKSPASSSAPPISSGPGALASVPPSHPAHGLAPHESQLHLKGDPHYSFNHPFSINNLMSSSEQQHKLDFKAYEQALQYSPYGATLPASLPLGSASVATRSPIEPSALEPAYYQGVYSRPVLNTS"}
{"Strand": "ATCTTCCCCCTCTTCCTTGCCCCACCAGCTCACCTTCCCGGGTTGTTTACTTTGAGTATTTATTTTCAAGCCGGCATTCGTTAACCCTCTTCTGGCGCAAACTGCTGTTTGCTCTGGATGAATCATGGTCCTTTGGCGACGCCAGGCTCCGGGAGAGCAAAGCACCGTGTCAGGGCCATGATCCGGGGTGGCC", "normalised bound fraction": "0.349 ratio"}
{"Strand": "AAGTTGAATTGCTTGTCACGTACCATAGACTGAGGTCTGTGGCTGCAGTTGCCTGCCATTTCAGACAGATGATTCATCTTATAAACAGATTATGTAATTTTGTTATTGATAAATACAGTATGGTACTGTAAATGTATTTTCTCTTTATGATTTTCTTTAAAATATTTTTCTTTCTCGGCCAGCACTTTGGGAG", "normalised bound fraction": "0.0334 ratio"}
{"Strand": "ATCTTCCCCCTCTTCCTTGCCCCACCAGCTCACCTTCCCGGGTTATTTGCAGATAGGAAAATAAATAAAGCCGGCATTCGTTAACGCAGTTCTGGCGCAAACTGCTGTTTGCTCTGGATGAATCATGGTCCTTTGGCGACGCCAGGCTCCGGGAGAGCAAAGCACCGTGTCAGGGCCATGATCCGGGGTGGCC", "normalised bound fraction": "0.351 ratio"}
{"Strand": "AGATTACAAGGTCCTAGAAATTTAACATGCAAAATCTGGAGAAGATAGAGAGTAGGGTGGGGTTGTTGAAAGGTTTTTAGTAGGGTTTTCCAAAGTAAACATAGTCAGGTTATTTTAAAAAATAAAATATAACTTGTTAGCTTGAAAGTAGGAGAAAAAAATTTAAAAAAATAAAATTTCAGTGTTAGATATA", "normalised bound fraction": "0.414 ratio"}
{"Strand": "TAACCGGAGCGTGCACACCCGCCTGCGAGGCTGACCCGAGCGCGTCCCACCCAAGGTCGCCCAGCCCCGCGGGCGTTTACTTTTCAAAGGTCGTGTGTACACAGTCTGAGCCGGAGCTGCCCCTTCACTTCTGGAGCCTCGCCCAACTTCTCACCCTCGGCTCGCCCGCCGGCGCAGCCCCTGGGAGTTCCGT", "normalised bound fraction": "0.217 ratio"}
{"Strand": "TGAGACACCAAGCATAGCCCAGCACTTAATTTTTAAAAAGGCTTAAAGTGTCACATACAGAAGCTCATTAAGTTAACAAGTGTACAGATGCTTGTTTACTTATTACGCACAATCTTACGAGGCCACACAATCTGAGCGATGATTAGGAGCTCAAAGTTTAGATCCAATCTCAGGACAACATGAAATAAATGAC", "normalised bound fraction": "0.423 ratio"}
{"Strand": "AGCATTAACTCAAGCTGTTAGAATCAAGAATCCTAAGGAAAACAGATAGAAATAAATTACTGTATAAAATAGAAATGACTATATTGAAATAAGTAAACATGGAATAACTAAATATTTTTCAAATAAATTATTAGTGGGCCTATGAGGAAAATAAGGAAAAAGCAATATAAATAAAAAGCAAATAAATAAAACT", "normalised bound fraction": "0.514 ratio"}
{"Strand": "AGCAGGAAACTCTCCCACCCCTTTTTCCTCTCTCTTTCAAAGCAATTTGTTTCAGTATTTTAGCATACAAAAAAATAGAACCATTTTCTTCAATGTAAACAGAGATCTGCAGGGAAATAAGAGCGTTAAAAAAGAATTAGCATTTGTTTGGTGGTGAAGCTGCTTTTGTTTGTATCAGAAAGCTCTGCATGTT", "normalised bound fraction": "0.326 ratio"}
{"data": "Further values, each from its own experiment"}
{"SMILES": "CNC(=O)Nc1ccc2c(c1)C1(CC2)OC(=O)N(CC(=O)N(Cc2ccc(F)cc2)[C@@H](C)C(F)(F)F)C1=O (single isomer, unassigned)", "tested on": "Tyrosine-protein kinase ABL1 (ABL1, Homo sapiens, UniProt P00519, F317I)", "assay": "KINOMEscan", "setting": "1 µM, F317I mutant, nonphosphorylated", "scale": "baseline: control", "endpoint": "remaining binding", "result": "78%"}
{"SMILES": "COc1cc(/C=C/C(C)=O)ccc1O", "system": "mouse, microsomes or S9", "setting": "2 µM, 0.5 h", "endpoint": "remaining compound", "result": "28.9%"}
{"note": "A few entries again (block 2):"}
{"Strand": "AAGTTGAATTGCTTGTCACGTACCATAGACTGAGGTCTGTGGCTGCAGTTGCCTGCCATTTCAGACAGATGATTCATCTTATAAACAGATTATGTAATTTTGTTATTGATAAATACAGTATGGTACTGTAAATGTATTTTCTCTTTATGATTTTCTTTAAAATATTTTTCTTTCTCGGCCAGCACTTTGGGAG", "normalised bound fraction": "0.0334 ratio"}
{"Strand": "ATCTTCCCCCTCTTCCTTGCCCCACCAGCTCACCTTCCCGGGTTATTTGCAGATAGGAAAATAAATAAAGCCGGCATTCGTTAACGCAGTTCTGGCGCAAACTGCTGTTTGCTCTGGATGAATCATGGTCCTTTGGCGACGCCAGGCTCCGGGAGAGCAAAGCACCGTGTCAGGGCCATGATCCGGGGTGGCC", "normalised bound fraction": "0.351 ratio"}
